Experimental data collected from several papers.
Lines come from different studies, so protocols differ. ± gives the spread as reported. Values after ≈ are worked out from the molar mass of the structure shown.

Structure (SMILES)	organism	test	system	setting	how to read	quantity	result
O=C(CCC1CCN(c2cc(NC3CC3)ncn2)CC1)NCc1cccnc1	Cedar virus	viral replication	Vero C1008	–	relative to: CC50 over IC50	selectivity index	> 42
COc1ccc(-c2cc(=O)c3c(O)c(OC)c(O)cc3o2)cc1	Mycobacterium bovis	–	ATCC 27290	–	–	MIC	125 µg/mL (≈ 398 µM)
Clc1ccc(CN2CCCC3=CC4CC(CN5CCCCC45)C32)cc1Cl (centres unmarked)	Vesicular stomatitis virus	G pseudovirus entry	Huh-7	–	–	EC50	15.9 µM
Cc1nc(=O)c2cc(CN(C)c3ccc(C(=O)Nc4n[nH]c5ccccc45)s3)ccc2[nH]1	Mycobacterium tuberculosis	–	pptT knockdown without ATc	–	–	MIC50	39.4 µM (≈ 17.5 µg/mL)
CN(C)c1ccc(C=Nn2c(-c3ccccc3)nc3ccccc3c2=O)cc1	human parainfluenza virus 3	viral replication	Vero	–	–	EC50	> 20 µg/mL
Cc1cn(C2CC(N(C)C)C(CO)O2)c(=O)[nH]c1=O (centres unmarked)	parainfluenza virus 3	viral replication	Vero	–	–	EC50	> 0.37 µM
O=C1c2c(ccc(O)c2O)CN1Cc1cccc(Cl)c1F	HIV-1	viral replication	integrase Y143R mutant, VSV-G pseudotyped	–	–	EC50	0.6 ± 0.2 µM
OC12CC3CC(C1)CC(NCc1cnc(N4CCCCC4)nc1)(C3)C2	influenza A virus	viral replication, plaque reduction	A/Switzerland/9715293/2013 H1N1	–	–	EC50	3.4 ± 0.8 µM
O=C(Cc1cccs1)N[C@@H]1C(=O)N2C(C(=O)O)=C(CSc3cccc[n+]3[O-])CS[C@H]12	Mycobacterium tuberculosis	–	H37Rv	replicating	–	MBC	1.6 µM (≈ 0.742 µg/mL)
Cc1nc(=O)c2cc(CN(C)c3cccc(C(=O)Nc4n[nH]c5ccccc45)c3)ccc2[nH]1	Mycobacterium tuberculosis	–	pptH knockout	–	–	MIC50	96.5 µM (≈ 42.3 µg/mL)
c1ccc(CCNC2CCCc3c2[nH]c2ccc(C4CCCCC4)cc32)cc1 (centres unmarked)	Mycobacterium bovis	–	ATCC 35734	–	–	MIC	16 µg/mL (≈ 42.9 µM)
CC[C@H](C)[C@@H]1NC(=O)[C@H](CC(C)C)NC(=O)[C@@H](NC(=O)[C@H](CO)NC(=O)[C@H](CCCNC(=N)N)NC(=O)[C@@H](N)CO)CSSC[C@@H](C(=O)N[C@@H](CCC(N)=O)C(=O)N[C@@H](CCCNC(=N)N)C(=O)N[C@@H](CC(C)C)C(=O)N[C@@H](Cc2ccccc2)C(N)=O)NC(=O)[C@H](C(C)C)NC(=O)[C@H]([C@@H](C)CC)NC(=O)[C@H](CC(C)C)NC(=O)[C@@H](NC(=O)[C@H](CO)NC(=O)[C@H](CCCNC(=N)N)NC(=O)[C@@H](N)CO)CSSC[C@@H](C(=O)N[C@@H](CCC(N)=O)C(=O)N[C@@H](CCCNC(=N)N)C(=O)N[C@@H](CC(C)C)C(=O)N[C@@H](Cc2ccccc2)C(N)=O)NC(=O)[C@H](C(C)C)NC1=O	Candidozyma auris	broth microdilution	DSM 21092	–	–	MIC	31 µg/mL (≈ 10.9 µM)
O=C1c2ccc(O)c(O)c2C(=O)N1Cc1cccc(Cl)c1F	HIV-1	viral replication	integrase Y143R mutant, VSV-G pseudotyped	–	–	EC50	1.2 ± 0.2 µM
CCC1(O)C([N+](=O)[O-])=NNc2ncnn21 (centres unmarked)	unidentified influenza virus	viral replication	MDCK, H1N1	48 h	–	IC50	> 469 µM
O=C1/C(=N\NC(=S)NN=Cc2cccs2)c2ccccc2N1Cc1ccccc1	parainfluenza virus 3	viral cytopathogenicity	Vero	–	–	EC50	> 20 µM
C=CC1CN(C(=O)NCC=CCSSSCC=CCNC(=O)N2CC(C=C)OC2=S)C(=S)O1 (centres unmarked)	unidentified influenza virus	viral replication	H3N2	–	–	IC50	1.92 µM
C#CCN(Cc1ccc2[nH]c(C)nc(=O)c2c1)c1ccc(C(=O)N[C@@H](CCC(=O)O)C(=O)O)cc1	Mycobacterium tuberculosis	–	pptT knockdown without ATc	–	–	MIC90	> 100 µM
CC(C)N1CN(C2c3ccccc3CCc3ccccc32)n2cc(C(=O)O)c(=O)c(O)c2C1=O	lymphocytic choriomeningitis virus	–	Armstrong, culture supernatant	concentration not given, pretreatment	–	viral titre	increased
CCOC(=O)c1cnn2c1NN=C([N+](=O)[O-])C2(C)O (centres unmarked)	unidentified influenza virus	viral replication	MDCK, H1N1	48 h	–	IC50	91 µM
COc1ccc(NC(=O)CCc2nc(-c3ccc(N4CCCC4)cc3)no2)cc1OC	Cedar virus	viral replication	Vero C1008	–	relative to: CC50 over IC50	selectivity index	> 286
COc1c(CNC(=O)c2cc(C3CC3)nn2C)cccc1OC(F)(F)F	Rhinovirus A	viral replication	H1-HeLa, HRV-16	–	–	EC50	< 0.02 µM
CSC(=NNC(=O)c1ccc([N+](=O)[O-])cc1)SC	Mycobacterium	–	Fortuitum	–	–	MIC	100 µg/mL (≈ 350 µM)
C=C(C)C1C2OC(=O)C1C1(O)CC3OC34C(=O)OC2C14C (centres unmarked)	Drosophila melanogaster	coated vial bioassay	Canton-S wild type	concentration not given, adult flies	–	mortality	not toxic
O=C(O)CCCC1C2CCCN3CCCC(CN1S(=O)(=O)c1ccc(Cl)cc1)C23 (centres unmarked)	Vesicular stomatitis virus	viral entry	–	VSV G pseudotyped HIV	–	IC50	> 200 µM
COC(=O)[C@H](CCCNC(=O)OC(C)(C)C)NC(=O)c1ccc(NCc2ccc3nc(N)nc(N)c3c2Cl)cc1	Mycobacterium tuberculosis	microbial growth	H37RV	–	–	MIC90	< 0.1 µM
COC(=O)CC1C2CCCN3CCCC(CN1C(=O)c1ccc(Cl)cc1)C23 (centres unmarked)	Vesicular stomatitis virus	viral entry	–	VSV G pseudotyped HIV	–	IC50	> 200 µM
O=C(CCC1CCN(c2cc(NC3CC3)ncn2)CC1)NCc1ccc(F)cc1F	Cedar virus	viral replication	Vero C1008	–	relative to: CC50 over IC50	selectivity index	> 137
COC(=O)CC1C2CCCN3CCCC(CN1Cc1ccc(Cl)cc1)C23 (centres unmarked)	Vesicular stomatitis virus	viral entry	–	VSV G pseudotyped HIV	–	IC50	> 200 µM
CCOC(=O)c1nc2n(n1)C(O)(CC)C([N+](=O)[O-])=NN2 (centres unmarked)	unidentified influenza virus	viral replication	MDCK, H1N1	48 h	–	IC50	> 1060 µM
